# Experimental data from different studies.
# Lines come from different studies, so protocols differ. ± marks the error that the study gave.
# Target: Muscarinic acetylcholine receptor M1 (CHRM1, Homo sapiens, UniProt P11229)
# Residues used in one study (P11229 1-460): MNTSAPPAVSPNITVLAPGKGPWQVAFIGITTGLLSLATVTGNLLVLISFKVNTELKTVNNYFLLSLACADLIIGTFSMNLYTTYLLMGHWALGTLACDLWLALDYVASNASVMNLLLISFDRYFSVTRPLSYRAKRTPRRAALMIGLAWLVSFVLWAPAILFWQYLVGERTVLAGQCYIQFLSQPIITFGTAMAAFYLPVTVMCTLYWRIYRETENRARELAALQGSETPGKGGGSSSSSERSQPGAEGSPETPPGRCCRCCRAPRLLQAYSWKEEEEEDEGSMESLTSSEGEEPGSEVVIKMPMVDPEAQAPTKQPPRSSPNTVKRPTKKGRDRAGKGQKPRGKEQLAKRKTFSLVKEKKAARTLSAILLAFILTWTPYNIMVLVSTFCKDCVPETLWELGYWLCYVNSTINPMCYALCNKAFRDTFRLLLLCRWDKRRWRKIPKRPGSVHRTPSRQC
Structure (SMILES),test,system,setting,scale,endpoint,value
C=CCn1c(=O)c2ccccc2n2c(SCC(=O)Nc3ccc(NC(C)=O)cc3)nnc12,"receptor activation, agonist",,"concentration not given, 16 h",,Emax,142 ± 12%
C[Si]1(C[C@H](CN)CC(=O)O)CCCC1,"ligand displacement, radioligand",,70 µM,,inhibition,8%
CO[C@@H](C)c1c(NC(=O)Nc2cnc(-n3nccn3)c(C(F)(F)F)c2)cnc2sc(C)nc12,"ligand displacement, radioligand",,10 µM,,inhibition,6.9%
CNC(=O)C[C@H](Cc1ccc(C#N)cc1)NC(=O)c1cc(-c2ccc(CN[C@H](C)c3ccc(C)cc3)o2)ccc1Cl,"agonist response, antagonist",human cells,"10 µM, M1 antagonist",,inhibition,44%
CCCCCCOc1ccc(C(=O)OCCN2CC=CCC2)cc1,,membranes,"100 µM, 15 h, no carbachol",relative to: control,basal binding,1.12 ± 0.05 fold
C=CCn1c(=O)c2ccccc2n2c(SCC(=O)NCc3ccc(NC(C)=O)cc3)nnc12,"receptor activation, agonist",,"concentration not given, 16 h",,Emax,143 ± 5%
COc1ccc(C#CC2=C[C@H]3C[C@@]4(OC(=O)C=C24)[C@H]2CC[C@H](C(OC)OC)N32)cc1,"ligand displacement, radioligand",,10 µM,,inhibition,3%
CC(C)Cn1c(SCC(=O)N2CCc3ccccc3C2)nc2cc(Cl)ccc2c1=O,"ligand displacement, radioligand",,10 µM,,inhibition,-15%
Cc1[nH]nc2c1N=C(c1ccccc1Cl)c1cnc(N3CCOCC3)cc1N2,cell-free assay,,10 µM,,inhibition,2%
C=CCn1c(=O)c2ccccc2n2c(SC(C(=O)OCC)c3ccccc3)nnc12 (centres unmarked),"receptor activation, agonist",,"concentration not given, 16 h",,Emax,237 ± 65%
COc1ccc(C(=O)Nc2c(-c3cccs3)nc3ccccn23)cc1,"ligand displacement, radioligand",,10 µM,,inhibition,< 50%
C[Si](C)(C)C[C@@H](CN)CC(=O)O,"ligand displacement, radioligand",,75 µM,,inhibition,9%
CCCCCCOc1ccc(C(=O)OCC[N+]2(C)CC=CCC2)cc1 (centres unmarked),,membranes,"1 µM, 15 h, added: carbachol",relative to: control,Emax,1.65 ± 0.06 fold
O=C1c2sc(-c3ccc(N4CCC(CO)CC4)nc3F)nc2CCN1c1cccnc1,"ligand displacement, radioligand",,1 µM,,inhibition,-2%
